# Assay results collected from several papers.
# Several values in a cell are separate wells, animals, samples, runs or records. Numbers after ± are the reported error.
# VHL/BRD9: VHL/BRD9 (Homo sapiens, UniProt P40337+Q9H8M2)
# Sequence of UniProt P40337 (whole entry, looked up): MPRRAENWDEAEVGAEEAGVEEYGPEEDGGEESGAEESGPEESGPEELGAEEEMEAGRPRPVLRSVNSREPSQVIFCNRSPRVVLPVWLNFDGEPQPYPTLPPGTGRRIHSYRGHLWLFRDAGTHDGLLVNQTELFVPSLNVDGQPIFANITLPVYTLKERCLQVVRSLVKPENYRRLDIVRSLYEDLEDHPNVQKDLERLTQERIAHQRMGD
# Sequence of UniProt Q9H8M2 (whole entry, looked up): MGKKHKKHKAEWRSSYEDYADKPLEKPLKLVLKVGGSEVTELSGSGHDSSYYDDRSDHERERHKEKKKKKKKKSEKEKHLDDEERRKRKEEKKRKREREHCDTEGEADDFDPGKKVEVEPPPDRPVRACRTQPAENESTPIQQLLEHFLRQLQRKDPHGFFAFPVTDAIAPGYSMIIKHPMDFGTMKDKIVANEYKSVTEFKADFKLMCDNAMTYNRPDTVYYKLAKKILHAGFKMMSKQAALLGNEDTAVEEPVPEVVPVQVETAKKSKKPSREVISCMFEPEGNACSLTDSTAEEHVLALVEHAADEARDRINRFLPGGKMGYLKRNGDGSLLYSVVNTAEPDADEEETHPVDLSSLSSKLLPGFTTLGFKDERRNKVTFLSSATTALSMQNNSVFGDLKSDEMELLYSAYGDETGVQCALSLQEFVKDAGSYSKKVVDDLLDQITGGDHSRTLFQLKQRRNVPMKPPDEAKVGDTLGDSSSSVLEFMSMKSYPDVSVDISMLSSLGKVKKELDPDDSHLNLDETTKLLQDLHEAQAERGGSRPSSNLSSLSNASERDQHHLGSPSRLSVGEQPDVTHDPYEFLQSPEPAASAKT
# GPX4: Phospholipid hydroperoxide glutathione peroxidase GPX4 (GPX4, Homo sapiens, UniProt P36969)
# Sequence of UniProt P36969 (whole entry, looked up): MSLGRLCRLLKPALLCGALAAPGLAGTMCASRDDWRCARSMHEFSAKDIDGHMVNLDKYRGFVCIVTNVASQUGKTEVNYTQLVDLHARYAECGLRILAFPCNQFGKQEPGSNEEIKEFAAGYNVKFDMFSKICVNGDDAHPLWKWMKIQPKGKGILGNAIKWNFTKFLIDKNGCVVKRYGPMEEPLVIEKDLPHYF
# TAGLN: Transgelin (TAGLN, Homo sapiens, UniProt Q01995)
# Sequence of UniProt Q01995 (whole entry, looked up): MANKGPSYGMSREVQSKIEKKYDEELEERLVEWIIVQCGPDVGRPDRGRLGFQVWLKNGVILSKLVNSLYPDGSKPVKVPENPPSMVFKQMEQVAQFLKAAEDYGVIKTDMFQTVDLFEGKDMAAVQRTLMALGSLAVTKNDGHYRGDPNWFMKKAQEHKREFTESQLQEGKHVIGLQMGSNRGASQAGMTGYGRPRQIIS
# ALDH2: Aldehyde dehydrogenase, mitochondrial (ALDH2, Homo sapiens, UniProt P05091)
# Sequence of UniProt P05091 (whole entry, looked up): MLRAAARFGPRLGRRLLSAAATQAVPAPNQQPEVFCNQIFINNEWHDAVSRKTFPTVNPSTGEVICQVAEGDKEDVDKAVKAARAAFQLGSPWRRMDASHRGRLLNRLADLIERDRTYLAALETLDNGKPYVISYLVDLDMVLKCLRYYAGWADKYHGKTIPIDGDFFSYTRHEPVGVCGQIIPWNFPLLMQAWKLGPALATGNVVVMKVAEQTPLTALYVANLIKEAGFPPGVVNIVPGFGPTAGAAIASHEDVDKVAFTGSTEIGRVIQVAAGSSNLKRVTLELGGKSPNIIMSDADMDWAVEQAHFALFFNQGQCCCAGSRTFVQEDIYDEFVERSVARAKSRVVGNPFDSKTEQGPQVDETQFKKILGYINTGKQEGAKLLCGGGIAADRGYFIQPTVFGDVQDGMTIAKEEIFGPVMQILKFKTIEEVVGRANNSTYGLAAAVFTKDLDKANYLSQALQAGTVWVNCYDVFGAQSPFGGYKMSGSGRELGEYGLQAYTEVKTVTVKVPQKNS
# ACOT11: Acyl-coenzyme A thioesterase 11 (ACOT11, Homo sapiens, UniProt Q8WXI4)
# Sequence of UniProt Q8WXI4 (whole entry, looked up): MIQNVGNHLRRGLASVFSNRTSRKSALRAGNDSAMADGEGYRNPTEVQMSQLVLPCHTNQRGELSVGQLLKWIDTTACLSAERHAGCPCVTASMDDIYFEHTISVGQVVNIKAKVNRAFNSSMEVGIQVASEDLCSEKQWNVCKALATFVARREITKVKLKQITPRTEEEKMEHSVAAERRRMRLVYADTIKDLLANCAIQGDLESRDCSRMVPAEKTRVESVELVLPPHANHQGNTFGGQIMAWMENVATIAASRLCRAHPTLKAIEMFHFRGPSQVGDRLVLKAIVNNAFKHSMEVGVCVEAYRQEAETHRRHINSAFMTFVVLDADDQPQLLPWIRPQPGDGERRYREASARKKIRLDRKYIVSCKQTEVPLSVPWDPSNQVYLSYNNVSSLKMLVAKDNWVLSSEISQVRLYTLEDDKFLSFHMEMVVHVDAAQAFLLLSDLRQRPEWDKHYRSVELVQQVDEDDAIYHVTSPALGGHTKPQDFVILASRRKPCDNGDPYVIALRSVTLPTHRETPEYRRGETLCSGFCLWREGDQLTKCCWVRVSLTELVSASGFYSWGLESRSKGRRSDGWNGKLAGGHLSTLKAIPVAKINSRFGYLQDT
# BTLA: B- and T-lymphocyte attenuator (BTLA, Homo sapiens, UniProt Q7Z6A9)
# Sequence of UniProt Q9H4M9 (whole entry, looked up): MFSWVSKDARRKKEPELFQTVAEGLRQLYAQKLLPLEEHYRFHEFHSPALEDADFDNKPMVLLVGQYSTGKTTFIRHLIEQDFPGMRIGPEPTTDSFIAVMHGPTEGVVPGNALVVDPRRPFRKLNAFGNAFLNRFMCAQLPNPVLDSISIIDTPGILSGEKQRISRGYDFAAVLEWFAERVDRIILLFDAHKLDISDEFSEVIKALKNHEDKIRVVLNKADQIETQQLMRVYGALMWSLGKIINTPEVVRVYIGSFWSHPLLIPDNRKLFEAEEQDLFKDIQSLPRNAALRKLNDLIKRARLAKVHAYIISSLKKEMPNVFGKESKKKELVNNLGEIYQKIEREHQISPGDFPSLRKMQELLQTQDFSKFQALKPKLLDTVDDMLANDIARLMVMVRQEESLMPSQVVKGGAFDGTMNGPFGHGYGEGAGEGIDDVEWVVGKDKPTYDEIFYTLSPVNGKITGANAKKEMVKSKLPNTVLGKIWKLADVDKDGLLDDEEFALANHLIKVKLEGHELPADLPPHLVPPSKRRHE
# Sequence of UniProt Q9SZU7 (whole entry, unmodified, looked up): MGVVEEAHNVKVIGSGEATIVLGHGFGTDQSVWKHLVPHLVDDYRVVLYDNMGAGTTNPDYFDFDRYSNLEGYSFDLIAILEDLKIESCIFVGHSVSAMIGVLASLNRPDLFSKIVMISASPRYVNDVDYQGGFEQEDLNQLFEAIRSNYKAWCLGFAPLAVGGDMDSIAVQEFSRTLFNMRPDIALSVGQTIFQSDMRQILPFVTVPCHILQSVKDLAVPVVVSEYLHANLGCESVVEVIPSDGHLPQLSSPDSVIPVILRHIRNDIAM
# Sequence of UniProt P16442 (whole entry, unmodified, looked up): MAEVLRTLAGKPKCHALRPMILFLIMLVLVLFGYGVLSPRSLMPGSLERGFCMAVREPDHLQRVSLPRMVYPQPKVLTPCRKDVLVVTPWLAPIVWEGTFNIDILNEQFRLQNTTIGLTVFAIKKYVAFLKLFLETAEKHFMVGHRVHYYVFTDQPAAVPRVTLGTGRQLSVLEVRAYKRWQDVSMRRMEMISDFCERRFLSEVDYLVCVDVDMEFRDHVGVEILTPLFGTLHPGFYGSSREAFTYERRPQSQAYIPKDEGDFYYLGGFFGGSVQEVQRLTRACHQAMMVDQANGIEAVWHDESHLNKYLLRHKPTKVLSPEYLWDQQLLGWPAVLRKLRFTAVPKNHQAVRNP
# Sequence of UniProt Q9Y2D0 (whole entry, looked up): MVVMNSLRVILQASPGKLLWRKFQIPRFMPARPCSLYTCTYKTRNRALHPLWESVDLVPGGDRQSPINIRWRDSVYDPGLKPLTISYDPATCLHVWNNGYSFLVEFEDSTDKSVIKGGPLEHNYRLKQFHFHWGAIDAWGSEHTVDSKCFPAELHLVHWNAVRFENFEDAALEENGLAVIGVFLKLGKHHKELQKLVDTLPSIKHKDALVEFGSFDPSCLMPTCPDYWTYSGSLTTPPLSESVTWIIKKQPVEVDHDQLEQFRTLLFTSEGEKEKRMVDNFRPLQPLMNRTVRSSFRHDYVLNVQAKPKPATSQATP
# Sequence of UniProt Q53GS9 (whole entry, looked up): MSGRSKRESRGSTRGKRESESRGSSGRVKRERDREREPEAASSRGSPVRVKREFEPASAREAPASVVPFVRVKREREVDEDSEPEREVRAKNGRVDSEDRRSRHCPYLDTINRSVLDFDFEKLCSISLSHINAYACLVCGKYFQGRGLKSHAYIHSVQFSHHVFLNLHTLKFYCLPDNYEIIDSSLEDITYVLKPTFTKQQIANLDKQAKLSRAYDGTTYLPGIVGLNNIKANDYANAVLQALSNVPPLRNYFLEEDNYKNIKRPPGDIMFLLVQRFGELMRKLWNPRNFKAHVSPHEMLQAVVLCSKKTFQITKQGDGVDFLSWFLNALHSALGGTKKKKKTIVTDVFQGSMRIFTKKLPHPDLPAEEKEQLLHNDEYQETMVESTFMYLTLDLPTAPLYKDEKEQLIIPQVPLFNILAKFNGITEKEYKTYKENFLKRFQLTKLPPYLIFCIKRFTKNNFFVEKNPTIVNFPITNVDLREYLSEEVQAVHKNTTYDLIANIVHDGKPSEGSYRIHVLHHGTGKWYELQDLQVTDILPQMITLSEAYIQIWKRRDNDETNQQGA
# Sequence of UniProt Q13283 (whole entry, looked up): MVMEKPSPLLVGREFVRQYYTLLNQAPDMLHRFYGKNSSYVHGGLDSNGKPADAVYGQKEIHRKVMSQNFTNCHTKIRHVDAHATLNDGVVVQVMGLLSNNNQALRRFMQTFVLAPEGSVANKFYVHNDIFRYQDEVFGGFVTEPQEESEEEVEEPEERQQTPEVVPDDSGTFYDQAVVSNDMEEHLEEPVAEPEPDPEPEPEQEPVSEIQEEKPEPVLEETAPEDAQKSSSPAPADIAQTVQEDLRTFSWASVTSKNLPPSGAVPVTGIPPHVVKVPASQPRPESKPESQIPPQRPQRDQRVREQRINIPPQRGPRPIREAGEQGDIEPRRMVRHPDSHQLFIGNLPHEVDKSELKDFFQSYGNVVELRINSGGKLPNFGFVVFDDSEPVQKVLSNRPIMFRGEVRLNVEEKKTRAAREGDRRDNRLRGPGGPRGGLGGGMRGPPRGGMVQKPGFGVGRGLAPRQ
Structure (SMILES),target,test,test system,setting,Kd
CC(=O)NCC1CCCCN1c1nc(N(C)CCc2ncc(C)s2)nc(N2CC3C(CCOc4cc(-c5scnc5C)ccc4CNC(=O)[C@@H]4C[C@@H](O)CN4C(=O)[C@@H](NC(=O)C4(F)CC4)C(C)(C)C)C3C2)n1 (stereo partly drawn),VHL/BRD9,"ternary binding, SPR",,with: VCB at 2 µM,0.442 µM
Nc1ccn(-c2ccc(Cl)cc2)c(=O)c1,GPX4,"binder, HSQC NMR titration",DLPC/DPC micelles,,> 400 µM
Cc1ncsc1-c1ccc(CNC(=O)[C@@H]2C[C@@H](O)CN2C(=O)[C@@H](NC(=O)C2(F)CC2)C(C)(C)C)c(OCCC2CCN(c3nc(NCC(C)(C)C4(O)CCOC4)nc(N4CCC[C@H]4Cn4ccnn4)n3)CC2)c1 (stereo partly drawn),VHL/BRD9,"ternary binding, SPR",,with: VCB at 2 µM,0.884 µM
CCOC(=O)C(CCCCNC(=O)/C=C/c1ccc(O)c(O)c1/C=C/c1ccc(O)c(O)c1)Cc1cccc(O)c1 (stereo not drawn),TAGLN,"binding, surface plasmon resonance",,,77.3 µM
CC(=O)NCC1CCCCN1c1nc(NCCn2nnc(C)n2)nc(N2CC3C(CCOc4cc(-c5scnc5C)ccc4CNC(=O)[C@@H]4C[C@@H](O)CN4C(=O)[C@@H](NC(=O)C4(F)CC4)C(C)(C)C)C3C2)n1 (stereo partly drawn),VHL/BRD9,"ternary binding, SPR",,with: VCB at 2 µM,0.769 µM
COc1ccc(C(=O)NO)cc1NC(=O)c1ccc(-c2ccccc2)cc1,ALDH2,"inhibitor, competition pulldown",SW620 and MV4-11 lysate,1 h,> 30.2 µM
CC(=O)NCCN(c1nc(N2CC3C(CCOc4cc(-c5scnc5C)ccc4CNC(=O)[C@@H]4C[C@@H](O)CN4C(=O)[C@@H](NC(=O)C4(F)CC4)C(C)(C)C)C3C2)nc(N2CC(n3ccnc3)C2)n1)C(C)C (stereo partly drawn),VHL/BRD9,"ternary binding, SPR",,with: VCB at 2 µM,1.3 µM
COc1ccc(Cn2ccc3ccc(C(=O)NO)cc32)cc1,ALDH2,"inhibitor, competition pulldown",SW620 and MV4-11 lysate,1 h,> 30.2 µM
Cc1[nH]c2ccccc2c1C(c1cccs1)N1CCN(c2ccccc2)CC1 (stereo not drawn),ACOT11,"binding, microscale thermophoresis",,,6.43 µM
C#CCN1CCN(c2nc(N3CCC(CCOc4cc(-c5scnc5C)ccc4CNC(=O)[C@@H]4C[C@@H](O)CN4C(=O)[C@@H](NC(=O)C4(F)CC4)C(C)(C)C)CC3)nc(N3CCN(C(=O)C4CC4)C3)n2)CC1=O,VHL/BRD9,"ternary binding, SPR",,with: VCB at 2 µM,1.8 µM
CC(NC(=O)[C@@H](NC(=O)[C@@H](NC(=O)CCC(C)(C)C)C(C)(C)O)[C@@H](C)c1ccccc1)C(=O)N1CCC[C@@H]1c1ccccc1 (stereo partly drawn),"G3BP1 (Homo sapiens, UniProt Q13283)",,,,0.15 µM
CCCCCCCCO[C@@H]1O[C@H](CO)[C@H](O)[C@H](O)[C@H]1O[C@@H]1O[C@@H](C)[C@@H](O)[C@@H](O)[C@@H]1O,"ABO (Homo sapiens, UniProt P16442, G235S/G268A/L266M/R176G/W181E)",methyl-TROSY NMR titration lineshape analysis,,apo mutant enzyme,35 ± 1 µM
NCCC(=O)O,"SLC6A6 (Homo sapiens, UniProt P31641, F58A)",,,,41.8 ± 14.8 µM
NC(=O)C[C@@H]1NC(=O)[C@H](Cc2ccc(O)cc2)NC(=O)CNC(=O)CNC(=O)[C@H](CCC(=O)O)NC(=O)[C@H](CCC(=O)O)NC(=O)[C@H](Cc2ccccc2)NC(=O)[C@@H]2CCCN2C1=O,"EH domain-containing protein 1, EH domain (Homo sapiens, UniProt Q9H4M9)","peptide binding, ITC",,"20 °C, 15 mM NaCl",2.61 µM and 2.76 µM and 1.84 µM and 2.87 µM
CCOC(=O)N1CCN(C(c2cccs2)c2c(C)n(C)c3ccccc23)CC1 (stereo not drawn),"Acyl-coenzyme A thioesterase 11, START domain (ACOT11, Homo sapiens, UniProt Q8WXI4)","binding, microscale thermophoresis",,,3.56 µM
CC[C@H](C)[C@H](NC(=O)[C@@H](NC(=O)c1cccc(Cl)c1Cl)C(C)(C)C)C(=O)N[C@H](C(=O)N[C@H](C(=O)N[C@H](C(=O)N[C@@H](Cc1ccc(O)cc1)C(=O)N[C@H](CCC(=O)O)C(=O)N[C@@H](Cc1ccc(F)cc1)C(=O)N[C@@H](Cc1c[nH]cn1)C(=O)NCCC(=O)N[C@@H](CCCCNC(=S)Nc1ccc2c(c1)C(=O)OC21c2ccc(O)cc2Oc2cc(O)ccc21)C(N)=O)[C@@H](C)O)[C@@H](C)CC)C(C)(C)C,"Protein phosphatase 3 catalytic subunit alpha, with calcineurin B (PPP3CA, Homo sapiens, UniProt Q08209)","binding, fluorescence polarisation",,"GST-calcineurin, with: FITC-labelled peptide",0.012 ± 0.004 µM
O=C1C=C(Nc2ccccc2)CN1,GPX4,"binder, HSQC NMR titration",DLPC/DPC micelles,,> 400 µM
COC(=O)CCCNC(=O)c1cc(S(N)(=O)=O)c(Cl)cc1NC1CCCCC1,"CA5B (Homo sapiens, UniProt Q9Y2D0)",,,pH 7,14 µM
CCOC(=O)c1ccc(OCC(=NO)c2ccc(O)cc2O)cc1,BTLA,microscale thermophoresis,,,0.83 µM
CCOC(=O)C(CCCCNC(=O)/C=C/c1ccc(O)c(O)c1/C=C/c1ccc(O)c(O)c1)Cc1ccccc1 (stereo not drawn),TAGLN,"binding, surface plasmon resonance",,,191 µM
Cn1ncc2cc(-c3cncc(Cl)c3N3CCC4(CCNC4=O)CC3)ccc21,MED1 (human),SILAC competition displacement,LS174T-L5 cell lysate,,0.002 µM
CCOC(=O)C(Cc1ccccc1)OC(=O)CCc1ccc(OC)c(OC)c1CCc1ccc(OC)c(OC)c1 (stereo not drawn),TAGLN,"binding, surface plasmon resonance",,,41.4 µM
Cc1c[nH]c2nccc(-c3ccc(C(=O)N[C@@H]4c5c(F)cc(C(F)F)cc5C[C@@H]4O)cn3)c12,"NUAK1 (Homo sapiens, UniProt O60285)","binding, competition with immobilised ligand",,,0.92 µM
CCOC(=O)C(CCNC(=O)CCc1ccc(O)c(O)c1CCc1ccc(O)c(O)c1)Cc1ccccc1 (stereo not drawn),TAGLN,"binding, surface plasmon resonance",,,742 µM
Cc1cccc2c1N(C(=O)n1ccnn1)CC2,"KAI2 (Arabidopsis thaliana, UniProt Q9SZU7, S95D)",ITC,,S95D mutant,40.5 µM and 63.3 µM
OC(Cc1cc(-c2ccc(C(O)C(F)(F)F)s2)sc1-c1ccc(-c2sc(-c3ccc(C(O)C(F)(F)F)s3)cc2CC(O)C(F)(F)F)s1)C(F)(F)F (stereo not drawn),"Microtubule-associated protein tau, 0N4R isoform, aggregated (MAPT, Homo sapiens, UniProt P10636)","binding, fluorescence",20% sucrose tau fraction,,0.067 µM
O=C(CCc1ccc(O)c(O)c1CCc1ccc(O)c(O)c1)OC(Cc1ccc(O)c(O)c1)C(=O)O (stereo not drawn),TAGLN,"binding, surface plasmon resonance",,,31.2 µM
CCCCCCCO[C@H]1[C@H](OC)O[C@H](CO)[C@@H](O)[C@H](O)[C@@H]1O,"Type 1 fimbrin D-mannose specific adhesin, lectin domain (fimH, Escherichia coli K-12, UniProt P08191)","binding, isothermal titration calorimetry",,"25 °C, global fit, two runs",2.2 µM
O=C(O)CCC(=O)c1cccc(NS(=O)(=O)c2c[nH]c3ncccc23)c1,"Ubiquitin carboxyl-terminal hydrolase 39, ZnF-UBD domain (Homo sapiens, UniProt Q53GS9)",,,,> 1000 µM
CC(=O)N[C@H]1[C@@H](OP(=O)(O)OP(=O)(O)OC[C@H]2O[C@@H](n3ccc(=O)[nH]c3=O)[C@H](O)[C@@H]2O)O[C@H](CO)[C@@H](O)[C@@H]1O,"ABO (Homo sapiens, UniProt P16442, G268A/L266G)","binding, NMR",,,297 µM
O=C(CCc1ccc(O)c(O)c1/C=C/c1ccc(O)c(O)c1)OC(Cc1ccc(O)c(O)c1)C(=O)O (stereo not drawn),TAGLN,"binding, surface plasmon resonance",,,21.9 µM
CC(=O)Oc1ccc(NC(=O)Cc2ccccc2)c(C(=O)O)c1,ACOT11,"binding, microscale thermophoresis",,,17.5 µM
CCOC(=O)C(CCCCNC(=O)CCc1ccc(OC)c(OC)c1CCc1ccc(OC)c(OC)c1)Cc1ccccc1 (stereo not drawn),TAGLN,"binding, surface plasmon resonance",,,72.4 µM
C=CC(=O)N1C[C@H](C)N(c2nc(OC[C@@]34CCCN3C[C@H](F)C4)nc3c(F)c(-c4ccc(F)c5sc(N)c(C#N)c45)c(C(F)(F)F)cc23)C[C@H]1C,"GTPase KRas, GppNHp-bound (KRAS, Homo sapiens, UniProt P01116, G12V)",,,,41.9 µM and 43.1 µM
O=C(/C=C/c1ccc(O)c(O)c1/C=C/c1ccc(O)c(O)c1)OC(Cc1ccc(O)cc1)C(=O)O (stereo not drawn),TAGLN,"binding, surface plasmon resonance",,,48.9 µM
COc1ccc([C@@H](C#N)N2CCN(C(=O)c3nn(-c4ccccc4)c(=O)c4ccccc34)CC2)cc1,BTLA,microscale thermophoresis,,,0.54 µM

# For quick reference, copied from above:
Structure (SMILES),target,test,test system,setting,Kd
CC(=O)NCC1CCCCN1c1nc(N(C)CCc2ncc(C)s2)nc(N2CC3C(CCOc4cc(-c5scnc5C)ccc4CNC(=O)[C@@H]4C[C@@H](O)CN4C(=O)[C@@H](NC(=O)C4(F)CC4)C(C)(C)C)C3C2)n1 (stereo partly drawn),VHL/BRD9,"ternary binding, SPR",,with: VCB at 2 µM,0.442 µM
O=C(CCc1ccc(O)c(O)c1/C=C/c1ccc(O)c(O)c1)OC(Cc1ccc(O)c(O)c1)C(=O)O (stereo not drawn),TAGLN,"binding, surface plasmon resonance",,,21.9 µM
COc1ccc(Cn2ccc3ccc(C(=O)NO)cc32)cc1,ALDH2,"inhibitor, competition pulldown",SW620 and MV4-11 lysate,1 h,> 30.2 µM
CCOC(=O)C(CCCCNC(=O)/C=C/c1ccc(O)c(O)c1/C=C/c1ccc(O)c(O)c1)Cc1cccc(O)c1 (stereo not drawn),TAGLN,"binding, surface plasmon resonance",,,77.3 µM
NCCC(=O)O,"SLC6A6 (Homo sapiens, UniProt P31641, F58A)",,,,41.8 ± 14.8 µM
